Results collected from several papers.
± gives the spread as reported. ≈ marks a conversion by molar mass, not a printed value.
Sequence of UniProt Q03164 (whole entry, looked up): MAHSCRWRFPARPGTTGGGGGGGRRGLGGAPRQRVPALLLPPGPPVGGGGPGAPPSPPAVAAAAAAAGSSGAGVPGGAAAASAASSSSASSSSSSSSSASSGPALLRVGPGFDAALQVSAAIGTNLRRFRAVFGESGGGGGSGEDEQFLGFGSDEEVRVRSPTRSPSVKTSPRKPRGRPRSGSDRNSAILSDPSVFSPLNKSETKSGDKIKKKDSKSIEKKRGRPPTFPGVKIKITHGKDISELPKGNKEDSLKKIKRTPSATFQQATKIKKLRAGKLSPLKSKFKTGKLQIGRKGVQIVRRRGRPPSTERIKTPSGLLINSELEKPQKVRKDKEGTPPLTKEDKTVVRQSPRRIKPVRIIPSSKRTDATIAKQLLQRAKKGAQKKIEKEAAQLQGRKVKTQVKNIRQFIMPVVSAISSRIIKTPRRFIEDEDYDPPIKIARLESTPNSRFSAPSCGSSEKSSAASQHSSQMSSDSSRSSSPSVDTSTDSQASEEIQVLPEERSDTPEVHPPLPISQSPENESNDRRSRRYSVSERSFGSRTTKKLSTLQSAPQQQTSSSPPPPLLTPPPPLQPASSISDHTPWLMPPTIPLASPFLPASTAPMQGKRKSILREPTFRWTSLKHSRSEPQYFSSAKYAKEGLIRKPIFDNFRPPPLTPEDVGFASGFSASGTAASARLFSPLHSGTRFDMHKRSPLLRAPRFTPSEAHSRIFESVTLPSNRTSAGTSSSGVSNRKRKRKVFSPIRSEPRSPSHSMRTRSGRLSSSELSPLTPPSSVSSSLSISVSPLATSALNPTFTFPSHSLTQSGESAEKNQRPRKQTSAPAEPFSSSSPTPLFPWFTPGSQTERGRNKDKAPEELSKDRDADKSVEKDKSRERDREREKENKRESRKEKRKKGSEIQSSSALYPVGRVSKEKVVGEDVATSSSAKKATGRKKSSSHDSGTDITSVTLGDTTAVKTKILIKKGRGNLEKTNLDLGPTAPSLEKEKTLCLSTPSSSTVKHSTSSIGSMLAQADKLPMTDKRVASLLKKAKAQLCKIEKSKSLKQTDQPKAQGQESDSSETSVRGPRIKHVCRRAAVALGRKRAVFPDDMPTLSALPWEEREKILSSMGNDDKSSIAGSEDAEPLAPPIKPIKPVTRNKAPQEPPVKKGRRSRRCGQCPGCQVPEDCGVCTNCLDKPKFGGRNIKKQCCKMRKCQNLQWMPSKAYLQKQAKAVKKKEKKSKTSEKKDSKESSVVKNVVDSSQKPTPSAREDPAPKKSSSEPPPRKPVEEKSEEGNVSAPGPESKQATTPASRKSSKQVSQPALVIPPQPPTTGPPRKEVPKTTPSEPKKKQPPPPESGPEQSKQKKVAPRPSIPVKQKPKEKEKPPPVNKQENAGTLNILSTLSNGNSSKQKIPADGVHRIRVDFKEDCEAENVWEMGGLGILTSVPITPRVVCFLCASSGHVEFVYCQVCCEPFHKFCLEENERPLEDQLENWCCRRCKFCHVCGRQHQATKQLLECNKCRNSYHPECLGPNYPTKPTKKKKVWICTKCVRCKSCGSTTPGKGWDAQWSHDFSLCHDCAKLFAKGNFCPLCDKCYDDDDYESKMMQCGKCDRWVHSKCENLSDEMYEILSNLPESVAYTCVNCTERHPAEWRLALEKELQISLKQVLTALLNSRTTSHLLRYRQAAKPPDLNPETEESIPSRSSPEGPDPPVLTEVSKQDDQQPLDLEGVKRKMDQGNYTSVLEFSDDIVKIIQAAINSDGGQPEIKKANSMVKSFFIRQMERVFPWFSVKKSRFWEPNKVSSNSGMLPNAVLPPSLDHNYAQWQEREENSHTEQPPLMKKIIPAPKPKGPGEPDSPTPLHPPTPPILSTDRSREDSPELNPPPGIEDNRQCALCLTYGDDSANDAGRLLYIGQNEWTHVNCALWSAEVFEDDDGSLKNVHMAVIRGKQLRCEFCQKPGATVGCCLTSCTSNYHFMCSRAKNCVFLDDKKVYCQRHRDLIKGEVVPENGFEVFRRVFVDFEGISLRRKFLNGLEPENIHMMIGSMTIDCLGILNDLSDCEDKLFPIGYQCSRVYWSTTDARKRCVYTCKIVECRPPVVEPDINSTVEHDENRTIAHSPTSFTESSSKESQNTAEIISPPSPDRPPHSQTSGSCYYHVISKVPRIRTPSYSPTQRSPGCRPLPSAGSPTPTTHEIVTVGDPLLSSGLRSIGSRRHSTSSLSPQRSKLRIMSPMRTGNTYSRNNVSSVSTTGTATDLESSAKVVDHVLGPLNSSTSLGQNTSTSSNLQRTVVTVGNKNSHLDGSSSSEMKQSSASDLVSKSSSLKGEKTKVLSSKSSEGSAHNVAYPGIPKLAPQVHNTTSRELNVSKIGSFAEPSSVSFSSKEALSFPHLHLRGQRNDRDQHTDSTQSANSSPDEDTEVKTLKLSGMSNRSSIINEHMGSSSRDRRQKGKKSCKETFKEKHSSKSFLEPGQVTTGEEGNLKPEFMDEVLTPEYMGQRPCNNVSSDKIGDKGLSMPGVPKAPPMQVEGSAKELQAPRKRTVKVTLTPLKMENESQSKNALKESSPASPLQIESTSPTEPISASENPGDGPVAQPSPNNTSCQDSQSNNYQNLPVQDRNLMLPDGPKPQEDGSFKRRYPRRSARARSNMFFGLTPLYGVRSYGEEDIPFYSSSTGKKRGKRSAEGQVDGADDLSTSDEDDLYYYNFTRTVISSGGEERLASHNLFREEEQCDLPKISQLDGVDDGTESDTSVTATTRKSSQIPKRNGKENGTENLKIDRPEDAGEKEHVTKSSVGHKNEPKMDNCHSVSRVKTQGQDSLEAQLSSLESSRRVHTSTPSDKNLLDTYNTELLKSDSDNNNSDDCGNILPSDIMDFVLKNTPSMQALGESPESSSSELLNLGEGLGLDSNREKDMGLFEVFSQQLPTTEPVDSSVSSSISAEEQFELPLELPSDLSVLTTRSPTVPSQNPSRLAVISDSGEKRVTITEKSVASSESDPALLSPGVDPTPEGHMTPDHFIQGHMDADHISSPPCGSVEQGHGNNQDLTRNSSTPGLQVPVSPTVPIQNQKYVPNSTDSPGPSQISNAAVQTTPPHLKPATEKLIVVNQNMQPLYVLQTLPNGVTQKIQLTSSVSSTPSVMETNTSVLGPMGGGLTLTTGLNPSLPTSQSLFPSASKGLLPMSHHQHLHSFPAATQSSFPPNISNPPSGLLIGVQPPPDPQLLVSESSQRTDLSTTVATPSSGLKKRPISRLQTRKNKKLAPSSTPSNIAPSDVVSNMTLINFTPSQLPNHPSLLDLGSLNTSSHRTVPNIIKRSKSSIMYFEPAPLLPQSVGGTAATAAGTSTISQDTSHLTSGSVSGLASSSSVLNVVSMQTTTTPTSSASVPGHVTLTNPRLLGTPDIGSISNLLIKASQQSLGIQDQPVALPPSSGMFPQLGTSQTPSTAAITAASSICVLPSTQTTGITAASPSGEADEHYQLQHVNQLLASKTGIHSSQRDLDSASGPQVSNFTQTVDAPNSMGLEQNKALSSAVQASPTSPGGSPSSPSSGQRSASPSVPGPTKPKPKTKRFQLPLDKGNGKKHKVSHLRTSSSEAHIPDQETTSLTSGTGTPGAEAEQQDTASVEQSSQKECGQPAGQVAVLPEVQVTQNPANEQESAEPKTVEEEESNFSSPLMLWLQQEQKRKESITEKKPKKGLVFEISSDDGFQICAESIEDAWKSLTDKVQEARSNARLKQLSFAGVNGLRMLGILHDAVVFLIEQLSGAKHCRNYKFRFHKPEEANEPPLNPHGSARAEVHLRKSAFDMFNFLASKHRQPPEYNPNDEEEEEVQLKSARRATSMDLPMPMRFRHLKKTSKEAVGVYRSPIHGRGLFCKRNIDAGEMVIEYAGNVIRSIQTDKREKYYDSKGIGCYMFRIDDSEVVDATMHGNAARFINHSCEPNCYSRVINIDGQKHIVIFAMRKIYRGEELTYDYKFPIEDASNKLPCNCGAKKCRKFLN
Sequence of UniProt P31423 (whole entry, looked up): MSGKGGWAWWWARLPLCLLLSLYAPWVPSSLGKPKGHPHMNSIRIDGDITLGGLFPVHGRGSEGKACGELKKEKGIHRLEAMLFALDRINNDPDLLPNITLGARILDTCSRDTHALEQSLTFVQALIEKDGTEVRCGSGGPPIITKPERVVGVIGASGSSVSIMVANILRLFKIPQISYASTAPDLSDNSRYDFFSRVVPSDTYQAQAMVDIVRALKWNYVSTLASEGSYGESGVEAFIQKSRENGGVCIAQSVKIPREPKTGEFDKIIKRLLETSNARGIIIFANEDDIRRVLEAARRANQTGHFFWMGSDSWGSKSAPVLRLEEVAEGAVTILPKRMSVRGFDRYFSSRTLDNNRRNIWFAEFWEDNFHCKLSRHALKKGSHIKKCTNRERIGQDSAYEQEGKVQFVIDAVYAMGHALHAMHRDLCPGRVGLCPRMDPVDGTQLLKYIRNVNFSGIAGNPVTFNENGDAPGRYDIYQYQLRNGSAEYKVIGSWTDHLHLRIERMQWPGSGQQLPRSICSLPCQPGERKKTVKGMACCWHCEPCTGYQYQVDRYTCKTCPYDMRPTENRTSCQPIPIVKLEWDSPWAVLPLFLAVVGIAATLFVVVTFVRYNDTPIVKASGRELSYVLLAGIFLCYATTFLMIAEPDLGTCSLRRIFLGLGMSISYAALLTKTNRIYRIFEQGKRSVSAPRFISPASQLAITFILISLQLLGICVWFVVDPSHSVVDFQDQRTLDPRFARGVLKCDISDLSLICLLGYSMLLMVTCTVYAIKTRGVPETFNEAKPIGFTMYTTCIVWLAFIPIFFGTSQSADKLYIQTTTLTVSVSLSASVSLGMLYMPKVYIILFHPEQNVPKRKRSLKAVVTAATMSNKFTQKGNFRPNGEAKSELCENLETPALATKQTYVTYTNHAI
Sequence of UniProt Q9UNP9 (whole entry, looked up): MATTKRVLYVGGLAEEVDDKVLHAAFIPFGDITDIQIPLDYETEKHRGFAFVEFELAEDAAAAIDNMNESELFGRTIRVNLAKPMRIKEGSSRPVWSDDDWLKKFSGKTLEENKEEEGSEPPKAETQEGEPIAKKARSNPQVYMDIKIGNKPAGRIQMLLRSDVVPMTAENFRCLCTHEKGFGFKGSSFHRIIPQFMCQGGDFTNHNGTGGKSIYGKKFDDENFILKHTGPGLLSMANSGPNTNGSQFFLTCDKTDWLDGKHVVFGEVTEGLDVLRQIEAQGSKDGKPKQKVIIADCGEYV

SMILES	target or system	test	test system	conditions	scale	quantity	result
C=CC(=O)Nc1cc(Nc2nccc(-c3cn(C)c4ccccc34)n2)c(OCC(F)(F)F)nc1N(C)CCN(C)C	Cytochrome P450 3A4 (CYP3A4, Homo sapiens, UniProt P08684)	substrate	recombinant enzyme	3 µM, 1 h	–	compound metabolised	≥ 78%
CC(C)=CCCC(C)=CCc1cc(-c2coc3cc(OC4OC(C(=O)O)C(O)C(O)C4O)ccc3c2=O)ccc1O (stereo not drawn)	–	glucuronidation, substrate	mouse liver microsomes	–	–	substrate inhibition Ki	15.4 ± 2.35 µM
N#CCc1cccc(Cl)c1-c1ccc2[nH][11c](=O)[nH]c2c1	P-glycoprotein and Bcrp	ex vivo brain uptake	mouse	injection, 5 min, together with: tariquidar	relative to: without tariquidar	brain-to-blood ratio increase	177%
C[C@H](N)C(=O)N[C@@H](CCCNC(=N)N)C(=O)N[C@H](C(=O)N[C@@H](CCCC[N+](C)(C)C)C(=O)N[C@@H](CCC(N)=O)C(=O)N[C@H](C(=O)N[C@@H](C)C(=O)N[C@@H](CCCNC(=N)N)C(=O)N[C@@H](CCCCN)C(=O)N[C@@H](CO)C(=O)N[C@H](C(=O)NCC(=O)NCC(=O)N[C@@H](CCCCN)C(=O)N[C@@H](C)C(=O)N[C@@H](Cc1ccc(O)cc1)C(=O)O)[C@@H](C)O)[C@@H](C)O)[C@@H](C)O	KMT2A/PPIE, PHD3; CYP33 RRM (Homo sapiens, UniProt Q03164+Q9UNP9)	isothermal titration calorimetry	–	together with: CYP33 RRM	relative to: free PHD3	Kd fold increase	~5.7 fold
O=C(C[C@H](Cc1ccc(O)cc1)n1nncc1CNS(=O)(=O)c1ccc(-c2ccccc2)s1)NO	ERAP2 (Homo sapiens, UniProt Q6P179)	inhibitor	–	–	–	lipophilic ligand efficiency	3.08
O=c1c(/C=N/NC(=S)N/N=C/c2ccccn2)coc2ccccc12	Mn2+ complex	potentiometric titration	–	25 °C	–	log stability constant	16.7
O=C(NO)c1ccc(CN2CCCCc3ccccc32)c([18F])c1	Histone deacetylase 6 (Macaca mulatta, UniProt H9ER82)	–	male rhesus macaque, whole brain	intravenous, 5.07 mCi, baseline	–	peak SUV	1.3
[64Cu+2].c1cnc(CNCc2ccc(CN3CCCN4CCNCCCN(CC4)CC3)cc2)nc1	CXCR4	–	NOD/SCID mouse, U87 and U87-stb-CXCR4 xenografts, kidney	iv, 240 min, ex vivo	–	tissue uptake	28.2 ± 3.07 %ID/g
N=C(N)NCCC[C@@H]1NC(=O)[C@H](CCCCNC(=O)CNC(=O)CNC(=O)CNC(=O)CC[C@H](NC(=O)CNC(=O)CNC(=O)CNC(=O)CN2CCN(CC(=O)O)CCN(CC(=O)O)CCN(CC(=O)O)CC2)C(=O)NCC(=O)NCC(=O)NCC(=O)NCCCC[C@@H]2NC(=O)[C@@H](Cc3ccccc3)NC(=O)[C@H](CC(=O)O)NC(=O)CNC(=O)[C@H](CCCNC(=N)N)NC2=O)NC(=O)[C@@H](Cc2ccccc2)NC(=O)[C@H](CC(=O)O)NC(=O)CNC1=O [indium-111 labelled]	–	–	female athymic nu/nu mice, brain	intravenous, 4 h	–	tissue uptake	0.07 %ID/g
NC(=S)N/N=C/c1ccccc1O	Mn2+ complex	potentiometric titration	–	25 °C	–	log stability constant	15.2
COc1cc(CCC(C)=O)ccc1O	mAb 5-3H1	antibody binding, indirect competitive ELISA	–	together with: coating antigen 2-OVA	–	IC50	> 4 µg/mL
COc1cccc2c1C(=O)c1c(O)c3c(c(O)c1C2=O)CC(O)(C(=O)CO)CC3OC1CC(NC(=O)C[C@H](N)C(=O)O)C(O)C(C)O1 (stereo partly drawn)	P-glycoprotein (MDR1)	–	MDCK-MDR1	50 µg/mL, 60 min	–	Papp (B-A)	0.87 ± 0.073 ×10⁻⁶ cm/s
O=C(O)[C@H]1O[C@@H](O[C@H]2C=Cc3c(cc4ccc5cccc6c7ccccc7c3c4c56)[C@@H]2O)[C@H](O)[C@@H](O)[C@@H]1O	UGT1A10 (Homo sapiens, UniProt Q9HAW8)	substrate	–	–	–	Km	66 ± 19 µM
N=C(N)NCCC[C@@H]1NC(=O)[C@H](CCCCNC(=O)CC[C@H](NC(=O)CC[C@H](NC(=O)CN2CCN(CC(=O)O)CCN(CC(=O)O)CCN(CC(=O)O)CC2)C(=O)N[C@@H](CCC(=O)NCCCC[C@@H]2NC(=O)[C@@H](Cc3ccccc3)NC(=O)[C@H](CC(=O)O)NC(=O)CNC(=O)[C@H](CCCNC(=N)N)NC2=O)C(=O)NCCCC[C@@H]2NC(=O)[C@@H](Cc3ccccc3)NC(=O)[C@H](CC(=O)O)NC(=O)CNC(=O)[C@H](CCCNC(=N)N)NC2=O)C(=O)NCCCC[C@@H]2NC(=O)[C@@H](Cc3ccccc3)NC(=O)[C@H](CC(=O)O)NC(=O)CNC(=O)[C@H](CCCNC(=N)N)NC2=O)NC(=O)[C@@H](Cc2ccccc2)NC(=O)[C@H](CC(=O)O)NC(=O)CNC1=O [indium-111 labelled]	–	–	female athymic nu/nu mice, liver	intravenous, 1 h	–	tissue uptake	2.67 ± 0.32 %ID/g
O=C(Nc1ccc(N2C(=O)c3cccc([18F])c3C2=O)c(Cl)c1)c1ccccn1	Grm4 (Rattus norvegicus, UniProt P31423)	PET	Sprague-Dawley rat, male	intravenous, 37 MBq	–	time of brain uptake and washout	≤ 20 min
NC(=O)N/N=C/c1ccccn1	Cu2+ complex	potentiometric titration	–	25 °C	–	log stability constant	16.7
O=C([O-])c1cccc(CN2CCNCCNCC2)n1.[Cu+2]	copper(II/I) couple	cyclic voltammetry	–	pH 5, 25 °C	–	half-wave potential	-0.555 V vs Ag/AgCl
O=C1CCN(Cc2ccccc2)CC1C(C[N+](=O)[O-])c1ccccc1 (stereo not drawn)	–	tail immersion test	BALB/c mice	ip, 25 mg/kg, 0.5 h	–	tail flick response	19.3%
O=C([O-])CN1CCN(CC(=O)[O-])CCN(Cc2cccc(C(=O)[O-])n2)CC1.[Cu+2]	copper(II/I) couple	cyclic voltammetry	–	pH 5, 25 °C	–	half-wave potential	-0.685 V vs Ag/AgCl
CC(C)(C)OC(=O)N[C@@H](CCCCCC(=O)NO)C(=O)NC1CCCC1	Lucilia cuprina	larval weight gain	LS strain, larvae on impregnated cotton wool	24 h	–	IC50	101 µg
O=c1c(/C=N/NC(=S)N/N=C/c2ccccc2O)coc2ccccc12	Cu2+ complex	potentiometric titration	–	25 °C	–	log stability constant	20
COc1ccc(F)cc1CC1(NC(=O)c2cc(N3C[C@@H](C)O[C@H](C)C3)ccn2)CC1	SLC6A8 (Homo sapiens, UniProt P48029, R278C)	creatine transport rescue	U-2 OS R278C knock-in	24 h	–	EC50	~1 µM
CC[C@H](C)[C@H](NC(=O)[C@@H](NC(=O)[C@H](Cc1ccc(O)cc1)NC(=O)[C@H](CCCCN)NC(=O)[C@H](CCCCN)NC(=O)[C@H](CC(C)C)NC(=O)[C@H](CC(=O)O)NC(=O)[C@H](Cc1ccc(O)cc1)NC(=O)[C@H](CCC(N)=O)NC(=O)[C@H](CCCCN)NC(=O)[C@@H](NC(=O)[C@H](Cc1ccccc1)NC(=O)[C@H](CCCCN)NC(=O)[C@H](CCCCN)NC(=O)[C@H](Cc1c[nH]c2ccccc12)NC(=O)[C@H](CCCCN)NC(=O)[C@H](CCSC)NC(=O)[C@H](CCCNC(=N)N)NC(=O)[C@H](CCCNC(=N)N)NC(=O)[C@H](CC(N)=O)NC(=O)[C@H](CCC(N)=O)NC(=O)[C@H](Cc1ccccc1)NC(=O)[C@H](Cc1c[nH]c2ccccc12)NC(=O)[C@@H](NC(=O)[C@H](CCCCN)NC(=O)[C@@H](NC(=O)[C@H](CCC(N)=O)NC(=O)[C@@H](N)CCCNC(=N)N)[C@@H](C)CC)[C@@H](C)CC)[C@@H](C)CC)[C@@H](C)CC)C(=O)O	Plasmodium falciparum	–	–	90 µM	–	time to caspase activation	≤ 4 h
Cc1cc(Cl)ccc1OCCCC(=O)NO	Lucilia cuprina	larval weight gain	LS strain, larvae on impregnated cotton wool	24 h	–	IC50	> 1000 µg
COc1ccc(/C=C/c2ccc(-c3ccc(C)cn3)nc2)cc1	zinc(II)	–	neutral aqueous solution	zinc saturation	relative to: zinc-free ligand	emission wavenumber shift	2250 cm⁻¹
CNC(=S)N/N=C/c1ccccn1	Cu2+ complex	potentiometric titration	–	25 °C	–	log stability constant	18.4
[64Cu+2].c1ccc(CNCc2ccc(CN3CCCN4CCNCCCN(CC4)CC3)cc2)nc1	CXCR4	–	NOD/SCID mouse, U87 and U87-stb-CXCR4 xenografts, stomach	iv, 240 min, ex vivo	–	tissue uptake	2.32 ± 0.35 %ID/g
CCCCC/C=C/C(=O)CCc1ccc(O)c(OC)c1	mAb 5-3H1	antibody binding, indirect competitive ELISA	–	together with: coating antigen 1-OVA	–	IC50	0.441 µg/mL (≈ 1.6 µM)
O=c1c(/C=N/NC(=S)N/N=C/c2cc(Cl)ccc2O)coc2ccccc12	Cu2+ complex	potentiometric titration	–	25 °C	–	log stability constant	20.1
O=C(O)[C@@H]1C[C@@H](O)CN1C(=O)[C@@H]1CCCN1	iron(III) ion	complex formation, Van't Hoff plot	aqueous 0.15 M NaCl	MAH−1 complex species	–	ΔH	56.8 kcal/mol

For quick reference, copied from above:
SMILES	target or system	test	test system	conditions	scale	quantity	result
N#CCc1cccc(Cl)c1-c1ccc2[nH][11c](=O)[nH]c2c1	P-glycoprotein and Bcrp	ex vivo brain uptake	mouse	injection, 5 min, together with: tariquidar	relative to: without tariquidar	brain-to-blood ratio increase	177%
[64Cu+2].c1ccc(CNCc2ccc(CN3CCCN4CCNCCCN(CC4)CC3)cc2)nc1	CXCR4	–	NOD/SCID mouse, U87 and U87-stb-CXCR4 xenografts, stomach	iv, 240 min, ex vivo	–	tissue uptake	2.32 ± 0.35 %ID/g
O=C(C[C@H](Cc1ccc(O)cc1)n1nncc1CNS(=O)(=O)c1ccc(-c2ccccc2)s1)NO	ERAP2 (Homo sapiens, UniProt Q6P179)	inhibitor	–	–	–	lipophilic ligand efficiency	3.08
